Published values of several laboratories.
A part holds a random share of what one study measured. Several values in a cell are separate wells, animals, samples, runs or records.
Sequence of UniProt Q99986 (whole entry, looked up): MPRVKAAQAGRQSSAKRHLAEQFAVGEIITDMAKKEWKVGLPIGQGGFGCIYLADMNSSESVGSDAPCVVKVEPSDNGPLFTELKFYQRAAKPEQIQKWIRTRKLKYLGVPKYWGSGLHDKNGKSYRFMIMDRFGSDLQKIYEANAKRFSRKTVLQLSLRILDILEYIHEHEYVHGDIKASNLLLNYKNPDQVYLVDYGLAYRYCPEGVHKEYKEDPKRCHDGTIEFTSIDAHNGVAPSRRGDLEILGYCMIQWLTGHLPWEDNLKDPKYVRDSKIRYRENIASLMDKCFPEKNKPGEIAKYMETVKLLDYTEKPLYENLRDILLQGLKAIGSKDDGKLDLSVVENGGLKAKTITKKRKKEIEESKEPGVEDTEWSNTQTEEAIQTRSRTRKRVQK
Sequence of UniProt Q9P286 (whole entry, looked up): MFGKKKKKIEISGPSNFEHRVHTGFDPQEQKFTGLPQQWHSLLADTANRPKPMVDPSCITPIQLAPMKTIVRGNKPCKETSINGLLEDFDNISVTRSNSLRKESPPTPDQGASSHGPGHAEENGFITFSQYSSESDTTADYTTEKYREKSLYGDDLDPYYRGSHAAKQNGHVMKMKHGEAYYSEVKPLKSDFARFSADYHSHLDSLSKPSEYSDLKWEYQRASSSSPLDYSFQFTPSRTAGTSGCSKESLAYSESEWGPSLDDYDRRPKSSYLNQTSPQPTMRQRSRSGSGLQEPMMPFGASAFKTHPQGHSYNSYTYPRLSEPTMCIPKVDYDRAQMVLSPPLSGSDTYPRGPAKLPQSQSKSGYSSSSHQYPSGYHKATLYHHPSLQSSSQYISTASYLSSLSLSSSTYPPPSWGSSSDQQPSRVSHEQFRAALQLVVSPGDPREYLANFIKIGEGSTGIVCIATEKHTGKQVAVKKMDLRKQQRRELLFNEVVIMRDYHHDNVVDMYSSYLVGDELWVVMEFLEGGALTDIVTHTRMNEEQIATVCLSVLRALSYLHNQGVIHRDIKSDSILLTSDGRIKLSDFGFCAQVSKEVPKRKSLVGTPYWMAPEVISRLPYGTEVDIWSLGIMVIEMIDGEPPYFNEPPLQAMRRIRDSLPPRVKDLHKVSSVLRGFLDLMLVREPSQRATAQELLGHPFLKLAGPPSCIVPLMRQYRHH
Sequence of UniProt Q16513 (whole entry, looked up): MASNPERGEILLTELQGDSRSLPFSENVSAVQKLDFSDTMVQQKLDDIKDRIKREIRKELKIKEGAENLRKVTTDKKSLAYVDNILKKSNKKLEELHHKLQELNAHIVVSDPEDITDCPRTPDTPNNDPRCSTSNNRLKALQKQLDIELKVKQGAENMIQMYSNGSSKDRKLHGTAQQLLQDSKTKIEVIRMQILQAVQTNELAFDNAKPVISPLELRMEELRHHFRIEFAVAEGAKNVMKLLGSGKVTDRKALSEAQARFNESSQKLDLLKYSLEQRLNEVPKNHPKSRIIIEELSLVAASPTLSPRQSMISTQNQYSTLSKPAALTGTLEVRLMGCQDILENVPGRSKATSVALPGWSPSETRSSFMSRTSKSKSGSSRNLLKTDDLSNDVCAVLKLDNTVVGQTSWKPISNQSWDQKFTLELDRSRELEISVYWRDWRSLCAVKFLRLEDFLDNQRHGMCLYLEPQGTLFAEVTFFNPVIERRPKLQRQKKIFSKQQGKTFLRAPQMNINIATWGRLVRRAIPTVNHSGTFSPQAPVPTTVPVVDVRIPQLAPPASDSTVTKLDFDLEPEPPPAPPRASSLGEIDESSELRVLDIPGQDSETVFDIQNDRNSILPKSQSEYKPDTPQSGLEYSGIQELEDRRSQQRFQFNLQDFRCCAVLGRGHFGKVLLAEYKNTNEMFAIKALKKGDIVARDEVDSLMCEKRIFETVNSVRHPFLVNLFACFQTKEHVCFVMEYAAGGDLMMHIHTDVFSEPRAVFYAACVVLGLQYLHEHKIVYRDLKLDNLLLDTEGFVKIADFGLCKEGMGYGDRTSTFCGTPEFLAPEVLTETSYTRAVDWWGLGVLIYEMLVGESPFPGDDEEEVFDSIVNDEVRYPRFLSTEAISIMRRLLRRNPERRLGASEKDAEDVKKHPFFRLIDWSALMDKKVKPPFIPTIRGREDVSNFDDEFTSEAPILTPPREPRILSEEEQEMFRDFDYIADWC

Study 1
SMILES: CC(C)(C)c1cc(C=C(C#N)C#N)cc(Br)c1O
Read-out: enzyme activity
Mode: inhibitor
Tested at: 0.5 µM
target	baseline	remaining activity [%]
Serine/threonine-protein kinase VRK1 (VRK1, Homo sapiens, UniProt Q99986)		86.4
Serine/threonine-protein kinase PAK 5 (PAK5, Homo sapiens, UniProt Q9P286)	control	119
Cyclin-dependent kinase 2, with cyclin A (CDK2, Homo sapiens, UniProt P24941)		90.7
Serine/threonine-protein kinase N2 (PKN2, Homo sapiens, UniProt Q16513)		64.3

Study 2
Host: mouse
Sample: microsomes or S9
Tested at: 2 µM
Time: 0.5 h
Compound	remaining compound
Cc1cc(Cl)cc(C(=O)N[C@H](C)CO)c1NC(=O)c1cc(Br)nn1-c1ncccc1Cl	74.5%
Cc1c(C(=O)NC(C(=O)O)C(C)C)c2cc(F)ccc2n1CC(C)(C)O (centres unmarked)	> 99%
CC(N)Cc1ccccc1[S+]([O-])c1ccccc1 (centres unmarked)	61.1%

Study 3
Target: Calcium/calmodulin-dependent protein kinase type II subunit alpha (CAMK2A, Homo sapiens, UniProt Q9UQM7)
Sequence of UniProt Q9UQM7 (whole entry, looked up): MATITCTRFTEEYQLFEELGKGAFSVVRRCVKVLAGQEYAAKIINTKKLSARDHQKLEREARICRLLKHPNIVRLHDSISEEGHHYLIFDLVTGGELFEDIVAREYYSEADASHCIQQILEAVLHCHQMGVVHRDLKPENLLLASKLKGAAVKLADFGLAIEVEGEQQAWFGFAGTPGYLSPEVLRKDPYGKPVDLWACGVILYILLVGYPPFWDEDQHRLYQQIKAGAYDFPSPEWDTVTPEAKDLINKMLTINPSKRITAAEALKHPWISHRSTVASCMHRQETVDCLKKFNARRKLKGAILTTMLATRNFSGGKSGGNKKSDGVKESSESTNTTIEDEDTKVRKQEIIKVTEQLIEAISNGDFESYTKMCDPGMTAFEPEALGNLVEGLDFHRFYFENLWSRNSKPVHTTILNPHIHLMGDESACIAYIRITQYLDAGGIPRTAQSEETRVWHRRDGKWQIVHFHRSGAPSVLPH
Read-out: enzyme activity
Mode: inhibitor
Tested at: 10 µM
Structure (SMILES)	inhibition [%]
CN1C(=O)COc2c(C(=O)NC3CN4CCC3CC4)cc(Cl)cc21 (centres unmarked)	-8
CCc1c2c(nc3ccccc13)-c1cc3c(c(=O)n1C2)COC(=O)[C@]3(O)CC	-108
CNC[C@H](N)C(=O)O	11

Study 4
Organism: Sarcocystis neurona
Read-out: parasite growth
Tested at: 10 µM
Notes: secondary screen
Compound	inhibition
c1ccc2c3c([nH]c2c1)CNCC3	-55.3%
CCOC(=O)C1(c2ccccc2)CCN(CCC(C#N)(c2ccccc2)c2ccccc2)CC1	-2.3%
c1ccc2c(c1)Nc1ccccc1S2	-62.6%

Study 5
SMILES: CC[C@@H](C)c1nc2cc(Nc3ccnc4ccc(S(=O)(=O)C(C)C)cc34)ccc2s1.Cl
Cell line: L929 RIPK3-/- reexpressing RIPK3 K51A
Technique: CCK-8
tested at	with	survival
1.563 µM		101% and 87.7% and 102% and 89.4% and 94.1%
1.563 µM	zVAD	99.6% and 102% and 97.9% and 99.8% and 90.9%
3.125 µM	zVAD	105% and 99.2% and 102% and 104%

Study 6
Target: 5-hydroxytryptamine receptor 2A (HTR2A, Homo sapiens, UniProt P28223)
Sequence of UniProt P28223 (whole entry, looked up): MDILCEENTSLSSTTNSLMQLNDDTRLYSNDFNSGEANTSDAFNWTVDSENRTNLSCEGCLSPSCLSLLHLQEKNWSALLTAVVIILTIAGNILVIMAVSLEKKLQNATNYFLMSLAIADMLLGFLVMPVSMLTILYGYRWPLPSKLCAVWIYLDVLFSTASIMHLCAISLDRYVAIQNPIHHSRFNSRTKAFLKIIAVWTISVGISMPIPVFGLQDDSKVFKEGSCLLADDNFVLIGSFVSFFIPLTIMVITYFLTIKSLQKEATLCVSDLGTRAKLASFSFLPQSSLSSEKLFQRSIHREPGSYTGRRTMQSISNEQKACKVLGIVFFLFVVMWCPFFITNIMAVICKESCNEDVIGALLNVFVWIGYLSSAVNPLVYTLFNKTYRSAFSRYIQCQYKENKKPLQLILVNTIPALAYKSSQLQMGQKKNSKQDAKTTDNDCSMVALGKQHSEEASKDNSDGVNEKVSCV
Read-out: ligand displacement
Tested at: 10 µM
Compound	inhibition
COc1cccc(CNC(=O)c2nc3scc(COCc4ccc(C(=O)O)cc4)c3c(=O)[nH]2)c1	-19.5%
O=C(O)c1cc(-c2ccc(C3CCNCC3)cc2)c2ccc(-c3ccc(C(F)(F)F)cc3)cc2c1	29.1%
CNCc1ccccc1-c1csc([C@@H](C)Nc2nc(C)nc3cc(OC)c(OC)cc23)c1	98.5%
CN(C)c1ncnc(-c2ccc3nc(Nc4cc(CN5CCN(C(=O)CC(F)(F)F)CC5)ccn4)[nH]c3c2)c1Cl	-4.19%
Cc1cc(C)c(-n2ccn3nc(-c4cccnc4)cc23)cc1NC(=O)c1cc(C#N)cc(S(F)(F)(F)(F)F)c1	-4.7%
CC1CCN(c2ccnc(NCc3cn(C)cn3)n2)CC1	33.8%
O=C(NS(=O)(=O)c1ccc(NCC2CCOCC2)c([N+](=O)[O-])c1)c1ccc(N2CCN(Cc3ccc(C(F)(F)F)cc3-c3ccc(Cl)cc3)CC2)cc1Oc1cnc2[nH]ccc2c1	12.5%
CCCCN(CCCC)C(=O)CN1C[C@@H](c2cc(OC)c3c(c2)OCO3)[C@H](C(=O)O)[C@H]1CC(C)(C)CCC	7.84%
CCS(=O)(=O)c1cc2cc(C[C@](O)(CC(C)(C)c3ccc(F)cc3C(N)=O)C(F)(F)F)[nH]c2cn1	12.6%
CN(C)C(=O)Cn1cc(-c2nc(C3(c4ccc(-c5cnc(N)nc5)cc4)CC3)no2)cn1	-18.1%
Cc1c(N2CCNCC2)nc2ccc(Br)cc2c1C(=O)NC[C@H](CCC(=O)O)c1ccccc1Cl	38%
O=c1nc(-c2ccccn2)sc2ccccc12	-11.2%
CC1=C(C#N)[C@@H](c2ccc3[nH]nc(C)c3c2)C(C#N)=C(c2ccc(Cl)cc2)N1	5.76%
COc1ccc2c(c1)O[C@@H](c1ccc(OC)c(OC)c1)C[C@H]2NC(=O)C1(c2ccc3c(c2)OC(F)(F)O3)CC1	7.46%
CC(=O)C1=C(C)N(c2cccc(C(F)(F)F)c2)C(=O)N[C@H]1c1ccc(C#N)nc1	-6.25%
O[C@]1(C(F)(F)F)CCCC[C@H]1Nc1ccc(F)cc1	69.4%
